# Experimental data pooled from the literature.
# ± gives the spread as reported.
SMILES,cell line,assay,conditions,scale,quantity,result
Cc1noc(NS(=O)(=O)c2ccc(NC(=O)c3cc(-c4ccc5ccccc5c4)nc4ccccc34)cc2)c1C,mouse spleen cells,"cell proliferation, MTT","100 µM, 72 h, with: concanavalin A 5 µg/mL",,inhibition,46.7 ± 5.39%
CCC(=O)N(C)c1ccc(Cl)c(Cl)c1,DBA/1 mouse splenocytes,,"50, 100, 200 µM, 48 h, with: anti-CD3/CD28",,live CD3+ T cells,no effect
CCCC(CCC)C(=O)[O][Pt]([NH2])([NH2])([Cl])([Cl])[O]C(=O)C(Cl)Cl,LoVo oxaliplatin-resistant,MTT,,relative to: LoVo OXP over LoVo,resistance factor,< 2
Clc1cccc(Nc2nc(NCc3ccccc3)c3ccccc3n2)c1,SW-403,cell growth or viability,24 h,,GI50,5.4 µM
COc1cccc(/C=N/Nc2nc(Nc3ccccc3)nc(-n3nc(C)cc3C)n2)c1O,LDR,"silenced GFP reporter derepression, microscopy",overnight,relative to: sodium butyrate,Emax,104%
N[C@@H](CCC(=O)N[C@@H](CS[Se]Cc1ccc(-c2cc(C(F)(F)F)nn2-c2ccc(S(N)(=O)=O)cc2)cc1)C(=O)NCC(=O)O)C(=O)O,melanoma cells,,,relative to: normal cells over cancer cells,selectivity ratio,5 fold
COc1cccc2c(NCc3ccccc3)nc(Nc3cccc(Cl)c3)nc12,SW-403,cell growth or viability,72 h,,GI50,11 µM
O=C(c1ccc(Oc2ccc(C3CCCCC3)cc2)c([N+](=O)[O-])c1)C(Cl)Cl,NCI-H1299,"cell growth or viability, MTT",2.5 µM,,inhibition,> 95%
CCCCCCCCCn1cc(C(N)(CO)CO)nn1,Alzheimer's disease patient iPSC-derived neurons,,10 µM,,ceramide level,decreased
Cc1nn(-c2ccc(S(=O)(=O)N[C@H](CO)CC(C)C)cc2)c2nn3nnnc3nc12,HT-29,AO/EB staining,"1 µM, 24 h",,apoptotic cells,23 ± 2.82%
CCOP(=O)(CC(=O)Nc1ccc(S(=O)(=O)N(CC(N)=O)c2ccc(N(CC(N)=O)S(=O)(=O)c3ccc(OC)cc3)c3ccccc23)cc1)OCC,mouse primary cortical neurons,JC-1,"20 µM, with: amyloid beta 1-42",,mitochondrial membrane potential,increased
[Cl][Au].[Se]=c1n(C23CC4CC(CC(C4)C2)C3)ccn1C12CC3CC(CC(C3)C1)C2,LoVo-OXP colon cancer cells,MTT,,relative to: LoVo-OXP over LoVo IC50,resistance factor,1.4
Cn1cc(-c2cc(N3CCCCS3(=O)=O)ccc2N[C@H]2CC[C@H](C)CC2)c2cc[nH]c2c1=O (stereo in doubt),light2 cells transfected with GLI1-FLAG,"Western blot, measured: exogenous GLI1-FLAG",concentration not given,,protein level,no effect
CC1=CCC23OC2(C)CCC2C(CN(C)C)C(=O)OC2C13.Cl (centres unmarked),C6 rat glioma cells,,"20 mg/mL, clonogenic",relative to: control,proliferation,4.96 ± 2.17%
COc1cc(CNC(=O)C[C@H](C)CCC=C(C)C)ccc1OCc1cn(-c2cccc([N+](=O)[O-])c2)nn1,SNB-19 CNS cancer cells,SRB,"10 µM, 48 h",,growth percent,73.4%
COc1ccc([C@@H]2CC(=O)c3c(O)cc(O[C@@H]4O[C@H](CO[C@@H]5O[C@@H](C)[C@H](O)[C@@H](O)[C@H]5O)[C@@H](O[C@H]5O[C@H](CO)[C@@H](O)[C@H](O)[C@H]5O)[C@H](O)[C@H]4O)cc3O2)cc1O,A549,Matrigel Transwell invasion,"50 µg/mL, 24 h",,invasion,36.4 ± 6.96%
COc1cc2c(Nc3ccc(NC(=O)c4ccccc4)cc3)ncnc2cc1OCCCN1CCOCC1,prometaphase cells,,concentration not given,relative to: untreated,kinetochore Mad2 level,< 10%
COc1cc(CNC(=O)C[C@H](C)CCC=C(C)C)ccc1OCc1cn(-c2ccc(Cl)c(Cl)c2)nn1,SNB-19 CNS cancer cells,SRB,"10 µM, 48 h",,growth percent,81.3%
CCC12CCc3c(c4ccccc4n3C)CCN(CC3OC31)C2 (centres unmarked),BV-2,NO production,"6 µM, 1 h, 24 h stimulation, with: LPS 800 ng/mL",relative to: LPS control,inhibition,52.1 ± 0.1%
Cn1c2cc([S+](C)[O-])sc2c2cnn(Cc3cccc(N)c3)c(=O)c21 (centres unmarked),H1299,LC-MS/MS,"25 µM, 36 h",,intracellular serine,decreased
COc1cc(CNC(=O)C[C@H](C)CCC=C(C)C)ccc1OCc1cn(-c2ccc(Cl)cc2Cl)nn1,OVCAR-5 ovarian cancer cells,SRB,"10 µM, 48 h",,growth percent,91.7%
C#CCN(CC(=O)O[C@H]1[C@H](C)O[C@@H](O[C@H]2[C@H](N(C)C)[C@@H](O)[C@H](O[C@H]3[C@@H](CC=O)C[C@@H](C)[C@@H](O[C@H]4CC[C@H](N(C)C)[C@@H](C)O4)/C=C/C=C/C[C@@H](C)OC(=O)C[C@@H](O)[C@@H]3OC)O[C@@H]2C)C[C@@]1(C)O)C(=O)c1ccc(C(F)(F)F)cc1,HGC-27,Western blot,"0.10, 0.45, 0.90 µM, 24 h",,cleaved PARP level,increased
CC(=C(c1ccc(Cl)cc1)c1ccc(OCCN(C)C)cc1)c1ccc(Cl)cc1,60 NCI tumour cell lines,NCI one-dose screen,10 µM,,mean growth inhibition,no inhibition
Cc1ccc(C(C)C)cc1.O=C(N=P(c1ccccc1)(c1ccccc1)c1ccccc1)c1ccccn1.[Cl-].[Cl][Ru+],HCC1806,"cell growth or viability, resazurin",,,IC20,2.5 µM
COc1cc(CNC(=O)C[C@H](C)CCC=C(C)C)ccc1OCc1cn(-c2ccc(Br)cc2)nn1,M14 melanoma cells,SRB,"10 µM, 48 h",,growth percent,97.2%
COc1ccc([C@@H]2CC(=O)c3c(O)cc(O[C@@H]4O[C@H](CO[C@@H]5O[C@@H](C)[C@H](O)[C@@H](O)[C@H]5O)[C@@H](O)[C@H](O)[C@H]4O)cc3O2)cc1O,A549,Matrigel Transwell invasion,"50 µg/mL, 48 h",,invasion,42.8 ± 6.83%
COC(=O)[C@@H](Cc1cn(Cc2ccc(C)cc2)nn1)NC(=O)OCC1c2ccccc2-c2ccccc21,AsPC-1,MTS,"100 µM, 72 h",,cell growth inhibition,no effect
C=C(CC)C(=O)c1ccc(OCC(=O)NCCCCNC(=O)COc2ccc(C(=O)C(=C)CC)c(Cl)c2Cl)c(Cl)c1Cl,CoC1/DDP cisplatin-resistant,"cell growth, CCK-8","0.2 µM, with: cisplatin",,sensitisation to cisplatin,~5 fold
CC(=O)N[C@H](C(=O)N[C@H](C(=O)N[C@@H](CCCNC(=N)N)C(=O)N1Cc2ccccc2C[C@H]1C(=O)N[C@@H](Cc1ccccc1)C(N)=O)C1CCCCC1)C(C)C,MBP-specific BC-3 T cells,"Bio-Plex multiplex, measured: IL-1ra","200 µg/mL, 24 h, with: MBP87-99 antigen",,cytokine level,128 ± 31.5 pg/mL
COC(=O)C1C(C=NO)=Cc2cc3c(cc2C1c1cc(OC)c(OC)c(OC)c1)OCO3 (centres unmarked),uninfected mouse splenocytes,,,relative to: splenocyte CC50 over amastigote EC50,selectivity index,> 1.7
CCN(CC)CC(=O)Nc1cccc(-n2cc(-c3ccc4ccc(-c5cn(-c6cccc(NC(=O)CN(CC)CC)c6)nn5)cc4c3)nn2)c1,RCC4,"qRT-PCR, measured: HIF-1α","5 x IC50, 4 h",relative to: untreated,mRNA level,4%
COc1cc(CNC(=O)C[C@H](C)CCC=C(C)C)ccc1OCc1cn(-c2ccccc2[N+](=O)[O-])nn1,BT-549 breast cancer cells,SRB,"10 µM, 48 h",,growth percent,24.1%
Cc1ccc(C(C)C)cc1.[Cl-].[Cl][Ru+].[Ru+].c1ccc(-c2cn(CCCCOc3ccccc3-c3nc4ccccc4s3)nn2)nc1,MCF7,"PI flow cytometry, measured: G2/M phase","4 µM, 24 h",,cells in phase,18.5%
COC(=O)C(CCSC)NC(=O)/C=C/C=C/c1ccc(O)c(O)c1 (centres unmarked),HL-7702 (L-02) hepatocytes,"RT-qPCR, measured: PPARγ",100 µM,relative to: untreated,mRNA level,7 fold
O=C1c2ccc(O)cc2OC1(O)Cc1ccc(O)c(O)c1 (centres unmarked),HaCaT over HL-60,"cytotoxicity, MTT",72 h,relative to: IC50 HaCaT over IC50 HL-60,selectivity ratio,> 9.41
Cc1nn(C)c2nnc(-c3ccccc3)c(Cl)c12,D6,"RT-qPCR, measured: CLRN1 N48K mRNA","16.8 µM, 24 h, with: bortezomib 50 nM",,mRNA level,no effect
Cc1ccc(C(C)C)cc1.[Cl-].[Cl-].[Ru+2].c1ccc(P(=Nc2cccc3cccnc23)(c2ccccc2)c2ccccc2)cc1,Jurkat,,"concentration not given, 24 h",,annexin V positive cells,28%
COC[C@H](NC(=O)[C@H](CC1CCCCC1)NC(=O)CN1CCOCC1)C(=O)N[C@H](/C=C/S(C)(=O)=O)CC(C)C,"HFF, non-confluent","cell viability, CellTiter-Blue",72 h,,EC50,78.4 ± 18 µM
Cc1ccc(C(C)C)c(OCc2ccc(C(=O)N/N=C/c3cccc(O)c3O)cc2)c1,HCC4017,"qRT-PCR, measured: ANGPTL4","concentration not given, 24 h",,mRNA level,increased
Cc1c(Cc2cc(F)cc(OC(C)(C)C(=O)O)c2)c2ccc(C(=O)N[C@@H](C)c3cc(F)cc(C(C)(C)C)c3)cc2n1CC1CCC1,"human adipocytes, type 2 diabetic donor",,"concentration not given, 24 h",relative to: DMSO,adiponectin secretion increase,30%
CC[C@H](C)[C@H](NC(=O)[C@H](CCSC)NC(=O)[C@H](N)CC(C)C)C(=O)O,RAW264.7 cells,,"1 µM, 72 h",relative to: vehicle,cell proliferation,decreased

# For quick reference, copied from above:
SMILES,cell line,assay,conditions,scale,quantity,result
CCCC(CCC)C(=O)[O][Pt]([NH2])([NH2])([Cl])([Cl])[O]C(=O)C(Cl)Cl,LoVo oxaliplatin-resistant,MTT,,relative to: LoVo OXP over LoVo,resistance factor,< 2
Clc1cccc(Nc2nc(NCc3ccccc3)c3ccccc3n2)c1,SW-403,cell growth or viability,24 h,,GI50,5.4 µM
COc1cccc(/C=N/Nc2nc(Nc3ccccc3)nc(-n3nc(C)cc3C)n2)c1O,LDR,"silenced GFP reporter derepression, microscopy",overnight,relative to: sodium butyrate,Emax,104%
N[C@@H](CCC(=O)N[C@@H](CS[Se]Cc1ccc(-c2cc(C(F)(F)F)nn2-c2ccc(S(N)(=O)=O)cc2)cc1)C(=O)NCC(=O)O)C(=O)O,melanoma cells,,,relative to: normal cells over cancer cells,selectivity ratio,5 fold
COc1cccc2c(NCc3ccccc3)nc(Nc3cccc(Cl)c3)nc12,SW-403,cell growth or viability,72 h,,GI50,11 µM
O=C(c1ccc(Oc2ccc(C3CCCCC3)cc2)c([N+](=O)[O-])c1)C(Cl)Cl,NCI-H1299,"cell growth or viability, MTT",2.5 µM,,inhibition,> 95%
CCCCCCCCCn1cc(C(N)(CO)CO)nn1,Alzheimer's disease patient iPSC-derived neurons,,10 µM,,ceramide level,decreased
